Measurements collected from several papers.
Compare with care: the assays were run in different laboratories. Values joined by “and” are separate records of one study, mostly repeats; a detail may differ. ± gives the spread as reported.

SMILES | assay | test system | conditions | how to read | quantity | value
C=C(NC(=O)c1csc(-c2nc3c(cc2O)-c2nc(cs2)C(=O)NC(C(C)O)C(=O)NC(=C(C)OC)c2nc(cs2)C(=O)NC2c4nc(cs4)C(=O)NC(COC(=O)c4c5c6c(cccc6n4O)COC(=O)C(OC4CC(C)(O)C(N(C)C)C(C)O4)C2OC5)c2nc-3cs2)n1)C(N)=O (centres unmarked) | – | female Sprague-Dawley rat, plasma | intravenous, 18 mg/kg, single dose, infusion | – | Tmax | 4.8 min
CCCCC/C=C\CCCO[Si](CCCCN(C)C)(OCCC/C=C\CCCCC)OCCC/C=C\CCCCC | – | – | pH 7.5, formulated | – | zeta potential | 0.98 mV
O=C([O-])CN1CCN(CC(=O)[O-])CCN(CC(=O)NCC2CCC(C(=O)NC(Cc3ccc4ccccc4c3)C(=O)NCCCCC(NC(=O)NC(CCC(=O)O)C(=O)O)C(=O)O)CC2)CCN(CC(=O)[O-])CC1.[68Ga+3] (centres unmarked) | micro-PET/CT | mouse 22Rv1 xenograft, tumour | 2 h post-injection | – | maximum tumour uptake | 8.9 ± 0.88 %ID/g
CC(=O)N[C@@H](CC(C)C)C(=O)N[C@H](C(=O)N[C@@H](Cc1ccccc1)C(=O)N[C@@]1(C)CCCC=CCCC[C@@](C)(C(=O)N[C@@H](CCC(N)=O)C(=O)N[C@@H](CC(C)C)C(=O)N[C@H](C(=O)N[C@@H](CO)C(N)=O)[C@@H](C)O)NC(=O)[C@H](Cc2c[nH]c3ccccc23)NC(=O)[C@H](Cc2ccc(O)cc2)NC(=O)[C@H](CCC(=O)O)NC1=O)[C@@H](C)O | reversed-phase HPLC, C18 | – | N-acetylated peptide | – | HPLC retention time | 16.6 min
C/C(N)=N/C(=N\S(=O)(=O)c1ccc(C(F)(F)F)cc1)N1C[C@H](c2ccccc2)C(c2ccc(Cl)cc2)=N1 | – | female cynomolgus monkey, plasma | intravenous, 2 mg/kg | – | clearance | 1.9 mL/min/kg
CC[C@H](C)[C@@H]1NC(=O)[C@H](Cc2ccc(O)cc2)NC(=O)CCCSC[C@@H](C(=O)N(CC(=O)N[C@@H](CC(C)C)C(=O)NCC(N)=O)Cc2ccc(F)cc2)NC(=O)[C@H](CC(N)=O)NC(=O)[C@H](CCC(N)=O)NC1=O | – | human | intranasal, 200 µg repeated doses | – | AEs leading to discontinuation | 0%
COc1cc2ncnc(Oc3ccc(Nc4nccc5[nH]cc(-c6ccc(F)cc6)c(=O)c45)cc3F)c2cc1OC | – | male cynomolgus monkey, plasma | intravenous, 1.5 mg/kg | – | clearance | 0.683 mL/min/kg
CN(C)S(=O)(=O)c1ccc(S(=O)(=O)N2CCC(n3c(=O)[nH]c4ccccc43)CC2)cc1 | HPLC | corn oil | 24 h, 20 °C | – | solubility | < 2 µg/mL
O=C([O-])CN1CCN(CC(=O)[O-])CCN(CC(CCCc2ccccc2[N+](=O)[O-])N(CC(=O)[O-])CC(=O)[O-])CC1.[90Y+3] (centres unmarked) | HPLC | human serum | 336 h, pH 7, 37 °C | – | intact radiolabelled complex | 100%
COc1cccc(OC)c1-c1cc(C(=O)NC2(C(=O)O)C3CC4CC(C3)CC2C4)nn1-c1ccc(C(=O)N(C)CCCN(C)CCCN(C)C(=O)[C@H](CCCCNC(=O)[C@H](CC(C)C)NC(=O)C2OC2C(=O)O)NC(=O)CN2CCN(CC(=O)[O-])CCN(CC(=O)[O-])CCN(CC(=O)[O-])CC2)cc1C(C)C.[177Lu+3] (mixture of isomers) | – | mouse, HT-29 xenograft | 24 h post injection, biodistribution | reference: tumour over lung uptake | tumour-to-lung ratio | 20.2
CC[C@H](C)[C@H](NC(=O)[C@H](CC(N)=O)NC(=O)[C@@H](N)CCSC)C(=O)N[C@@H](CCSC)C(=O)N[C@@H](CC(=O)O)C(=O)N[C@@H](Cc1ccccc1)C(=O)N[C@@H](CC(N)=O)C(=O)N[C@H](C(=O)N[C@@H](CCCCN)C(=O)N[C@@H](CCCCN)C(=O)N[C@@H](CC(C)C)C(=O)N[C@@H](C)C(=O)N[C@@H](C)C(=O)N[C@@H](CC(=O)O)C(=O)N[C@@H](C)C(=O)NCC(=O)N[C@H](C(=O)N[C@@H](Cc1c[nH]c2ccccc12)C(=O)N[C@@H](CC(C)C)C(=O)N[C@@H](CO)C(=O)N[C@@H](CCCNC(=N)N)C(=O)N[C@@H](C)C(=O)N[C@H](C(=O)N[C@@H](CCC(N)=O)C(=O)N[C@@H](Cc1ccccc1)C(=O)N[C@H](C(=O)N[C@@H](CCC(=O)O)C(=O)N[C@@H](CCC(=O)O)C(=O)N[C@@H](CCCCN)C(=O)N[C@@H](CC(C)C)C(=O)NCC(=O)N[C@@H](CCC(N)=O)C(=O)N[C@@H](C)C(N)=O)[C@@H](C)O)C(C)C)[C@@H](C)O)C(C)C | circular dichroism | aqueous TFE | 50 µM, pH 7.4, 20 °C | – | m value | 1.13 ± 0.1 kcal/mol/M
CC[C@H](C)[C@H](NC(=O)[C@H](CC(=O)O)NC(C)=O)C(=O)N[C@@H](Cc1ccccc1)C(=O)N[C@@H](Cc1ccccc1)C(=O)N[C@@H](CCCNC(=N)N)C(=O)N[C@@H](Cc1ccc(O)cc1)C(=O)N[C@@H](CC(N)=O)C(=O)NCC(=O)N[C@@H](CCCCN)C(=O)N[C@H](C(=O)N[C@@H](Cc1c[nH]c2ccccc12)C(=O)N[C@@H](Cc1c[nH]c2ccccc12)C(=O)N[C@@H](CCCNC(=N)N)C(=O)O)C(C)C | circular dichroism | free peptide in solution | concentration not given, 25 °C, no insulin present | – | α-helix content | 6.45%
Cc1ccc(CN2C(=O)/C(=N\c3ccc(Cl)cc3Br)c3ccccc32)cc1 | – | mouse, blood | 200 mg/kg | – | Lym% | 54.3 ± 6.39%
C=CC(=O)Nc1cc(Nc2nccc(-c3cn(C)c4ccccc34)n2)c(OC)cc1N(C)CCNC | – | human, dried blood spots | 270 ng/mL, 2 h, -80 °C, high QC level | – | remaining compound | 100%
COc1ccnc(C(=O)N[C@H]2COC(=O)[C@H](Cc3ccccc3)[C@@H](OC(=O)C(C)C)[C@H](C)OC2=O)c1O | – | bovine fat | -18 °C | – | storage stability | 9 months
CCCC[C@H](OC(C)=O)c1ccccc1C(=O)O | – | beagle dog, both sexes, whole blood | intravenous, 1.5 mg/kg, day 7, fit of 1 h data | – | half-life | 14.4 ± 1.2 min
Cc1cc(-c2ccc(C(=O)[C@@H]3CCCC[C@H]3C(=O)Nc3cnn4c3C(=O)NCC4)cc2)[nH]n1 | – | human, urine | oral, 200 mg, 0-12 h | reference: dose | cumulative recovery of radioactivity | 4.74%
O=C(Nc1cnccc1-c1ccc([18F])nc1)c1ccnc(NC(=O)C2CC2)c1 | – | FVB/NJ mouse, both sexes, brain | intravenous, 5 min, with: tariquidar 15 mg/kg iv | – | SUV | 0.341

SMILES | assay | test system | conditions | how to read | quantity | value
O=C(NS(=O)(=O)c1cccs1)c1cc2ccccc2n1Cc1ccc(Br)c2ccccc12 | – | KM mouse, chronic hyperuricaemia model | dose not given, day 29 | – | body weight | 38 g and 36.4 g and 40.2 g and 38.8 g and 39.4 g and 39.2 g
CSCC[C@H](N)C(=O)N[C@@H](CO)C(=O)N[C@H](C(=O)N[C@@H](C)C(=O)NCC(=O)N[C@@H](CC(C)C)C(=O)N[C@@H](CCCCN)C(=O)N[C@@H](CCCCN)C(=O)N[C@@H](CCC(N)=O)C(=O)N[C@@H](Cc1c[nH]c2ccccc12)C(=O)N[C@@H](Cc1ccc(O)cc1)C(=O)N[C@@H](CCCCN)C(=O)N[C@@H](C)C(=O)N[C@@H](CO)C(=O)N[C@@H](CCC(N)=O)C(=O)N[C@@H](CC(C)C)C(=O)N[C@H](C(=O)N[C@@H](CO)C(=O)N[C@@H](CCC(=O)O)C(=O)N[C@@H](CCCCN)C(=O)N[C@H](C(=O)NCC(=O)NCC(=O)N[C@@H](C)C(N)=O)C(C)C)C(C)C)C(C)C | circular dichroism | 100% DOPS liposomes | 1 mM lipid | – | helical content | 55%
CC(C)(O)c1ncc([S@](N)(=O)=NC(=O)Nc2c3c(cc4c2CCC4)CCC3)s1 | – | healthy human subjects | oral, 30 mg, capsule | – | subjects with cardiac adverse events | 17%
CN1CCC[C@]1(C)/C=C/S(=O)(=O)NC(=O)Nc1c2c(cc3c1CCC3)CCC2 | item: nervous system disorders | human | oral, 50 mg twice daily, 14 days, multiple ascending dose | – | subjects with adverse event | 16.7%
CC1Cc2ccccc2N1C(=O)CN1CCN(Cc2ccccc2)CC1 (centres unmarked) | – | female NMRI mice, brain | intraperitoneal, 10 mg/kg free base, 60 min | – | concentration | 699 ng/mL and 735 ng/mL
C=CC(=O)N1CCCC(n2c(=O)c3ncccc3n(Cc3ccc(Oc4ccccc4)cc3)c2=O)C1 (centres unmarked) | – | male BALB/c mouse, plasma | oral, 200 mg/kg, 2 h | – | concentration | 8590 ng/mL
Cl.NCc1ccc2c(c1)CN(C1CCC(=O)NC1=O)C2=O (centres unmarked) | – | male cynomolgus monkey, whole blood | – | – | half-life | 4.3 min
CN(O)C(=O)CCC(=O)NCCCN(CCCCN(CCCNC(=O)CCC(=O)N(C)O)C(=O)CCC(=O)N(C)O)C(=O)CCC(=O)N(C)O.[89Zr] | – | human plasma | 1 d, 37 °C | – | intact complex | 99.9%
COc1cccc(OC)c1-c1cc(C(=O)NC2(C(=O)O)C3CC4CC(C3)CC2C4)nn1-c1ccc(C(=O)N(C)CCOCCN(C)C(=O)[C@H](CCCCNC(=O)[C@H](CC(C)C)NC(=O)C2OC2C(=O)O)NC(=O)CN2CCN(CC(=O)[O-])CCN(CC(=O)[O-])CCN(CC(=O)[O-])CC2)cc1C(C)C.[177Lu+3] (mixture of isomers) | – | mouse HT-29 xenograft | 24 h, biodistribution | reference: tumour over large intestine | tumour-to-large intestine ratio | 12.7
N#Cc1ccnc(N2C(=O)CC[C@H]2C(=O)N(c2cncc(F)c2)[C@H](C(=O)NC2CC(F)(F)C2)c2ccccc2Cl)c1 | – | cynomolgus monkey, plasma | intravenous, 1 mg/kg | – | clearance | 3.33 mL/min/kg
CC(C)[C@H](NC(=O)[C@H](Cc1c[nH]c2ccccc12)NC(=O)[C@H](CCCNC(=N)N)NC(=O)[C@H](CCCNC(=N)N)NC(=O)[C@@H](NC(=O)[C@@H](NC(=O)[C@H](CCCNC(=N)N)NC(=O)[C@@H](NC(=O)[C@@H](NC(=O)[C@H](CCCNC(=N)N)NC(=O)[C@H](CCCNC(=N)N)NC(=O)[C@@H](NC(=O)[C@H](Cc1c[nH]c2ccccc12)NC(=O)[C@H](CCCNC(=N)N)NC(=O)[C@H](CCCNC(=N)N)NC(=O)[C@@H](NC(=O)[C@H](CCCNC(=N)N)NC(=O)[C@H](CCCNC(=N)N)NC(=O)[C@@H](NC(=O)[C@H](Cc1c[nH]c2ccccc12)NC(=O)[C@H](CCCNC(=N)N)NC(=O)[C@@H](N)CCCNC(=N)N)C(C)C)C(C)C)C(C)C)C(C)C)C(C)C)C(C)C)C(C)C)C(=O)N[C@@H](CCCNC(=N)N)C(=O)N[C@@H](CCCNC(=N)N)C(=O)O | dipstick | CD-1 mice | intravenous, 15 mg/kg, 6-24 h | – | urine specific gravity | 1.01 g/mL
Cc1ccc(OCC(=O)N(Cc2cccs2)c2ccn[nH]2)cc1 | – | monkey plasma | 750 ng/mL, 1 h, 37 °C, unit not given | reference: time zero | remaining compound | 107
O=C(NNCc1ccccc1)C1(C(F)(F)F)CC1 | – | PBS | pH 7.4, 25 °C, 2% DMSO | – | solubility | 460 µM
OC1(C(F)(F)F)CCN(c2nc(Nc3ccnc(C(F)(F)F)c3)nc(-c3cccc(C(F)(F)F)n3)n2)C1 (centres unmarked) | – | monkey, plasma | oral, 1 mg/kg | – | half-life | 762 ± 131 min
O=C(Nc1cnccc1-c1ccc([18F])cc1)c1ccnc(NC(=O)C2CC2)c1 | ex vivo gamma counting | GSK-3β transgenic mice, early-stage, bladder | intravenous, 120 min, mean, P-gp inhibitor pretreatment, with: tariquidar 15 mg/kg iv | – | SUV | 0.94
COc1cccc(OC)c1-c1cc(C(=O)NC2(C(=O)O)C3CC4CC(C3)CC2C4)nn1-c1ccc(C(=O)NCCNC(=O)[C@H](CCCCNC(=O)[C@H](CC(C)C)NC(=O)C2OC2C(=O)O)NC(=O)CN2CCN(CC(=O)[O-])CCN(CC(=O)[O-])CCN(CC(=O)[O-])CC2)cc1C(C)C.[177Lu+3] (mixture of isomers) | – | mouse HT-29 xenograft | 4 h, biodistribution | reference: tumour over large intestine | tumour-to-large intestine ratio | 9.56
CCN(CC)c1ccc(-c2oc3cc4ccccc4cc3c(=O)c2O)cc1 | – | DMSO | with: visible light | – | CO release quantum yield | 0.006

For quick reference, copied from above:
SMILES | assay | test system | conditions | how to read | quantity | value
CC1Cc2ccccc2N1C(=O)CN1CCN(Cc2ccccc2)CC1 (centres unmarked) | – | female NMRI mice, brain | intraperitoneal, 10 mg/kg free base, 60 min | – | concentration | 699 ng/mL and 735 ng/mL
Cl.NCc1ccc2c(c1)CN(C1CCC(=O)NC1=O)C2=O (centres unmarked) | – | male cynomolgus monkey, whole blood | – | – | half-life | 4.3 min
COc1cc2ncnc(Oc3ccc(Nc4nccc5[nH]cc(-c6ccc(F)cc6)c(=O)c45)cc3F)c2cc1OC | – | male cynomolgus monkey, plasma | intravenous, 1.5 mg/kg | – | clearance | 0.683 mL/min/kg
CC(=O)N[C@@H](CC(C)C)C(=O)N[C@H](C(=O)N[C@@H](Cc1ccccc1)C(=O)N[C@@]1(C)CCCC=CCCC[C@@](C)(C(=O)N[C@@H](CCC(N)=O)C(=O)N[C@@H](CC(C)C)C(=O)N[C@H](C(=O)N[C@@H](CO)C(N)=O)[C@@H](C)O)NC(=O)[C@H](Cc2c[nH]c3ccccc23)NC(=O)[C@H](Cc2ccc(O)cc2)NC(=O)[C@H](CCC(=O)O)NC1=O)[C@@H](C)O | reversed-phase HPLC, C18 | – | N-acetylated peptide | – | HPLC retention time | 16.6 min
C=CC(=O)N1CCCC(n2c(=O)c3ncccc3n(Cc3ccc(Oc4ccccc4)cc3)c2=O)C1 (centres unmarked) | – | male BALB/c mouse, plasma | oral, 200 mg/kg, 2 h | – | concentration | 8590 ng/mL
O=C(NNCc1ccccc1)C1(C(F)(F)F)CC1 | – | PBS | pH 7.4, 25 °C, 2% DMSO | – | solubility | 460 µM
